Measurements of several laboratories.
Parts stem from different laboratories: compare values within a part only.

Study 1 — technique: RNA Bind-n-Seq; form: RNA; matrix: in vitro; concentration: 365 nM; reference: no-protein control; direction: higher = stronger binding; measurement: RBNS enrichment (R)
Target: RNA binding protein fox-1 homolog 2, RRM domain, GST-SBP tag (RBFOX2, Homo sapiens, UniProt O43251-10, residues 100-194)
Setting: natural RNA segment, single round, ends assumed
All sequences stand within: GGGAGUUCUACAGUCCGACGAUC … UGGAAUUCUCGGGUGCCAA
Target sequence (chain): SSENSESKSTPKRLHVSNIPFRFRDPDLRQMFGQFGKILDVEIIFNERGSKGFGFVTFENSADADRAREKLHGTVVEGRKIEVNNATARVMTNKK
GACUUACAUUCCCAGUGUGCCUGCCAGCUGCAAUGAGGACUCUAAACUCAAGUAGAACAAAUCCCUUCUUGGUCUUCUGGGACCACUAGAGGUCACCGUGUCCAGUCCUU: 0.541
GGCAUGGGAGGUCCUGCCAUCCGGGAGGAAAAGGAAAGUUUAGCCUCUAGUCUACCACCAGUGUUAACGCACUCUAAAGUUGUAACCAAAAUAAAUGUCUUACAUUACAA: 0.536
GUAUCGUGUUGUGGGCUGUUUGAGAAGACCUGUCCUCCUGAGCUGCUCCUUCCCAUGGUGCUCACAGGCCAGCAGAGCACCUCUUGUAGAUCUUGUUCCACCUCUAAUCU: 0.772
GUAGCCUGUAACCACUUUUAAAUGGCUUGAAAUUAGGAAACUUGUACAUUUAAUGUACACUUUGCGGUAGAUUAAGGAAUAUACUGCAUAUUUCUUUUUUUAAACUCGGG: 0.369
GGUAUCACCGAGGAAACCUUGCCCCCAUCACUCAGCAUUGCACUUAGAUACAGAAUGAGUUAGAUAAACUUGGCUUGUCUAGAGACCCAUGUCAUCUUAACCUAAAGGGA: 0.428
UUCUGAGCUCCCCAUCACCAUGGGAGGUGGGGCCUCAAUCUAAGGCCUUCCCUGUCAGAAGGGGGUUGUGGCAAAAGCCACAUUACAAGCUGCCAUCCCCUCCCCGUUUC: 0.202
GAUCCAAUUAUCUUUCUGAUCCUUAAAACACAUGACUUCCAGCUGAAGAGAUGGCUCAGUGGUUCAGAGCACUUACUCCUCAGGUGUAAGACCUGGGUUUGGUUCUCAGC: 0.394
AAAGCACCAUCAUCAUAGAGGAUGAUGUAAUUAAAAAAUGGUCAGUGUGCAAAGAAAAGAACUGCUUGCAUUUCUUUAUUUCUGUCUCAUAAUUGUCAAAAACCAGAAUU: 1.07
UGUCCUGCCAUUAAGAGAGGUCAGGAUUGCACCUGAAGGGUAUGGUGGGCACCCAGGCUGUGAAGGAACAAGAUGAGUGGAGCGGCCAGCAGUGGCAAGUCAAGGGAAGC: 0.921
GGCCUGGCCUCAGAACCUGGUGGCUCCUGCCUGCUCCUUCACUUUUGUAAAACCAUCCCCUUCACCAGAAUGGUAUUAACUCCUGGUGCUUUGUACUACUGGUCCAGCUG: 0.569
ACCAGCGCAGAGCGGGGGCAGCCUGCCCCGCUGUAGCACAGGAGCAAUGGUGUAGCGUCUUCCAAGGCCUUACUUUUUUUUCAGAAUGCUUUAAGUGUUGGCUGUAUGUG: 10.1
ACAUAUGUUCUUUUGUCAUUACCCAAUUUAACCUCCCUUUCUCUGAUAUGCCUUGUAGCCAAAGUAUUAAAGGCUGAUGAACAUAGACAAGGGAAAUGCAUUUCUUAGAA: 0.942

Study 2 — technique: protein binding microarray; form: double-stranded DNA, one strand shown; matrix: in vitro; concentration: not given; reference: not given; direction: higher = stronger binding; measurement: E-score
Target: Histone acetyltransferase KAT6A, both winged helices, GST fusion (KAT6A, Homo sapiens, UniProt Q92794, residues 1-181)
Setting: 8-mer, flanks averaged, mean of 2 arrays, mostly near background
Construct (chain): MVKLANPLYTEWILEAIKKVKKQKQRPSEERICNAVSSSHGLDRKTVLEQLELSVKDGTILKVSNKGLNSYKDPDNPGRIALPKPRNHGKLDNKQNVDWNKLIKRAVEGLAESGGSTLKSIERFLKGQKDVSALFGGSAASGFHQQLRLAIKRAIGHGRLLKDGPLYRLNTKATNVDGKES
CAGCTACC: -0.198
TCGCCAGA: -0.128
ATCACACC: -0.0878
AGGTACAA: -0.208
GAGTAAAC: -0.0565
AGTGTACG: 0.182
ACAATTGC: -0.0508
GAATAGGC: -0.134
CGTAACAC: 0.0717
CCTTAAAA: -0.243
TGGGAACA: -0.235
CGAAAGAA: -0.111
CCCAAACC: -0.0349
AACGTACT: -0.0727
AGCACTTC: -0.0751
GTTAGGCA: -0.183
TAGGAAAA: -0.0753

Study 3 — technique: RNA Bind-n-Seq; form: RNA; matrix: in vitro; concentration: 100 nM; reference: input RNA pool; direction: higher = stronger binding; measurement: bound/input enrichment
Target: RING finger protein unkempt homolog, zinc fingers 1-6, SBP tag (UNK, Homo sapiens, UniProt Q9C0B0, residues 30-357)
Sequence of UniProt Q9C0B0 (30-357, looked up): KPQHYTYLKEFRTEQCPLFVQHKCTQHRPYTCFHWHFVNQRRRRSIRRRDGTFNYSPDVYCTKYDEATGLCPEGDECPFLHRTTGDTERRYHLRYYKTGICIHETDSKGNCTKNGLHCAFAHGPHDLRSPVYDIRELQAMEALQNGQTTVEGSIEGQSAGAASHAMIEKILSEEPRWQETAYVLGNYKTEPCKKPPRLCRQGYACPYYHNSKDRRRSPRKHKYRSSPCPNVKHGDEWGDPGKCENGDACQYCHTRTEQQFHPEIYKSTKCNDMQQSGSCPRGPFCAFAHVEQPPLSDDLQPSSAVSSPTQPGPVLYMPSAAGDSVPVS
Setting: RNA with constant flanks, vertebrate orthologous sites, ends assumed
All sequences stand within: GGGAGUUCUACAGUCCGACGAUC … CAACAGAGGAUUGAGCAUCA
CUGGGCGUCCUCUCUGGGGGGCCGCUGGCCUCUUAGUGUGUUUCAUUUUUGACCUUGACAUAGUAGAUAGGCUUGUGGUUUUUUUAAUUUAAAGAUAUUAAGACUUAAUUCACUAAAAUU: 0.354 ratio
GAUCUGGACCUUGGAGCCGAACCAGGGAGCUAGCAAAAGUAAAGCAGACUUGUAAAAUUAUAGCCAUAUGCAGCUGCACAGCAACAGCACUACCACUAGCAGCUGUGUUAAAGUAUUUAU: 0.689 ratio
UGUUCGUGUCAUACCAGCAUAUUAACCUCGCGUCUGUGCACAGCUUCAAAUGUACCGUCGAGUUAGAUUUUUAUUUAAAAGUAUGGAAGGAAAAAAACCCUGCUUUUCCCAAGAUGUUUU: 1.14 ratio
GCACAUGCCGCUAUCACCAAAAGCAAACUGCCACUUUUCAAAUUUCAUUCAGAGCUGUUUUAGUGUUUCCUAUUCCCUAACCUUCCCACUACUUUCAGUGAUGAAAUAGCCUAAGUUGUC: 1.44 ratio
GUCCAGAAAUGGCCCCAUCCCACCUGUUUAUUCUGUAAACUACUACCUGUAAAUACUGUUUAGCAUUCCAAUUGUCACAAAGUUAAUUUUUAUUAAAUUAUAUUUCCUAGUCUAAUAAAA: 1.62 ratio
UGAAUAAACUGGGAUUUUCAAACAAUAGGAAGCUUUUUUUUUUUUUUUUAAACAGUUUAGUGUUUGGUUUGGUUUUUAUGUGGAGGACUAAACUCAUGCUUAGAGCUACAUGUGGUCUUC: 1.54 ratio
GUUAGGCCAUGAAGCUUAUCGGUUAGGCCAUGAAGCUUAUAGGUUAGGGCAGGACCCUUAUAGAUUAGGCCAUGAUCCCUACAGACUAACUCCUGAUCCCUACAGAAUGUCUGCUAGACC: 0.424 ratio
GGGAGAUAUUGAAUAGUAUUAAACAUUUUCGUCUUCCUUUACCUUUUAUCCCCUAAUACCUAGUCUACUUUUUUAAAUUUCAGACUUCACUGCUCUUUGAAUUGAUAAUUCCAAUUUUCA: 1.73 ratio
UCAUUUUUAAUUUUAACUUUAUUUUAUACAACGUGUAGACAGUUCCCUGUUCUCUGCAUUUAGAAGUAUACACAGUACAACUGUUAAUUCUGUAAGUAAUUUUUAUAAUUAUGAUGUAAC: 0.754 ratio
AGCAACUCAAGGAUUCAGAACUGGUUUUACAGAUGUCCCAAGCAGAUAUGGAACAAACACUCGUGGGCAACCCCGACCAUAAUAAACACCGUUAUUUAUUGUACUUAAGGGUAUUGACUU: 0.257 ratio
UUUGAGUUAGUUUUCCACAUUUUCUGUAAAUAAUGGAUAAUCUUUUUAAAGUUUAUUUUUAAGUGCUGUUUUAACAAUGCGGACAGACUAUAAAUGUACUUGCUGAAUUCAUUCAUUUUU: 0.282 ratio

Study 4 — technique: universal PBM; form: double-stranded DNA, one strand shown; matrix: in vitro; concentration: 600 nM; direction: higher = stronger binding; measurement: E-score
Target: Sal-like protein 4, full length isoform A (SALL4, Homo sapiens, UniProt Q9UJQ4, residues 1-1053)
Sequence of UniProt Q9UJQ4 (whole entry, looked up): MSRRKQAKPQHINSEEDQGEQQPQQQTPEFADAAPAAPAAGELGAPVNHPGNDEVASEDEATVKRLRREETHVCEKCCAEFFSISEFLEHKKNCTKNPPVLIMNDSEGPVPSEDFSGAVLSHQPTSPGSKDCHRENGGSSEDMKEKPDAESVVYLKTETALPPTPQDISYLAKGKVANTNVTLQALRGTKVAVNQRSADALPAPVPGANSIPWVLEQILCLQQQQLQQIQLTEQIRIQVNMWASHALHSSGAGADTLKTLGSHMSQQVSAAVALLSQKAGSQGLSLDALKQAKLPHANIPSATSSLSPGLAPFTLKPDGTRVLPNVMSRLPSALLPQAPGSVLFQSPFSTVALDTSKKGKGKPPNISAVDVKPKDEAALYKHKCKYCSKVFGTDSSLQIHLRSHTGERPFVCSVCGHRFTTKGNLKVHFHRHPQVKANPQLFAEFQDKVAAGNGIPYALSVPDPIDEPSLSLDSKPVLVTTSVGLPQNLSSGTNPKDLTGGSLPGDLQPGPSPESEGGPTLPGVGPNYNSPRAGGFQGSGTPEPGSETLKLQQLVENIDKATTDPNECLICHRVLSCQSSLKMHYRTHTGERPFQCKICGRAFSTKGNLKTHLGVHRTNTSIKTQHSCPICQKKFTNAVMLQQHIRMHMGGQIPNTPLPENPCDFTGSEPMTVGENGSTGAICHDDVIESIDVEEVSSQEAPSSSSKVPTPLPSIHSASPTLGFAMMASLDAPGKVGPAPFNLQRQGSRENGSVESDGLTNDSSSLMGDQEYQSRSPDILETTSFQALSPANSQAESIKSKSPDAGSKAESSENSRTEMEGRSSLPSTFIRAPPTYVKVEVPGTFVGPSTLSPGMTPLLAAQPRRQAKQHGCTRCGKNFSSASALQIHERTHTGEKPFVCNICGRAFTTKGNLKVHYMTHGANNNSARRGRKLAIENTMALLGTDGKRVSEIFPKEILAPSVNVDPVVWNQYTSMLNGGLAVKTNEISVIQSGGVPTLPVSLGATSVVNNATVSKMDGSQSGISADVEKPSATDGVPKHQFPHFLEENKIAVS
Setting: 8-mer, flanks averaged, mean of replicates
CTCACTAC: 0.0255
CGGAAGAG: -0.202
GCGACTGA: -0.229
CGTTAATC: 0.133
TAATGAAA: 0.374
ACCTGGCA: -0.229
GGAGGGAC: -0.24
CCATGAGA: 0.00212
AAGATGCC: -0.0981
GCCTTATA: 0.089
GCTCCTAC: -0.125
ATCAGCAA: -0.0753
AGAGTATG: 0.0232
GCACCCTA: -0.0895
CCTGTTAC: 0.18
CTTCATGA: 0.115
CGGAGGCA: -0.211
ACGACAGC: -0.0449
GATTGTCA: 0.191

Study 5 — technique: RNA Bind-n-Seq; form: RNA; matrix: in vitro; concentration: 200 nM; setting: whole 134-nt RNA, ends assumed; with: 150 mM LiCl; reference: input library; direction: higher = stronger binding; measurement: log2 enrichment; library: 7-deaza-guanosine replaces G
Target: Fragile X messenger ribonucleoprotein 1, C-terminal low-complexity region (Fmr1, Mus musculus, UniProt P35922)
All sequences stand within: GGGAGUUCUACAGUCCGACGAUC … UGGAAUUCUCGGGUGUCAAGG
UCCUGUGCUACACAUCGUAUGUACCGAAUCGGUUUUUUGGUUUUUUGGGUUUUUUGGGGAAAGUAUUAUGUUACGCCGUUCGGAUCUGCA: -1.38
AGUCCUGUGCUACACAUCGUAUGUACCGAAUCGGUUUUUGGAAAAAAAGGUUUUUGGAAAGUAUUAUGUUACGCCGUUCGGAUCUGCACU: -3.69
CUGUGCUACACAUCGUAUGUACCGAAUCGGAAAAAAAGGGAAAAAAAGGGGAAAAAAAGGGGAAAGUAUUAUGUUACGCCGUUCGGAUCU: 0.215
CAAAAACAACACGCACCCACACAGACACAGAGGGAAGGGGUUGGGAUGGGGACAGGGUGCACAGCAGGGCGGGGUAGGACCCCAGCCCCU: 1.11
CCUCAAGUCCUGUGCUACACAUCGUAUGUACCGAAUCGGGGCGGGGCGGCGGGAAAGUAUUAUGUUACGCCGUUCGGAUCUGCACUUCCA: -0.724
CCUGUGCUACACAUCGUAUGUACCGAAUCGGGGAAAAAAGGGGAAAAAAGGGGAAAAAAGGAAAGUAUUAUGUUACGCCGUUCGGAUCUG: 0.965
GCAGGAAGUAAAAACAAAUGGAAAUGCUUCGGAUAGUGGCAGGGGUGGGGGUUGCUAGGGAAAGGGUGGGAUGGGAGUGGGUAAAGAGUU: 0.783
UGGGAGGUGGAUUUUGUUUAUUAUUUUAGCUCAUUUCCAGGGGUGGGAAUUUUUUUUUAAUAUGUGUCAUGAAUAAAGUUGUUUUUGAAA: -0.439
UGUGUUGUGCUCAUUACCAGUGCAGCGACUGCCGUCCCAGGGUGACUCUGAGUUGUCCUUUAUCGUGAGCUAGCAAUGGCUAGCGAAGAC: -2.54
AGUCCUGUGCUACACAUCGUAUGUACCGAAUCGGGGAAAAGGGGAAAAGGGAAAAGGGAAAGUAUUAUGUUACGCCGUUCGGAUCUGCAC: -0.0445
CUGUGCUACACAUCGUAUGUACCGAAUCGGGAAAAAAAGGAAAAAAAGGGGAAAAAAAGGGGAAAGUAUUAUGUUACGCCGUUCGGAUCU: 0.333

A few entries again (study 2):
TGGGAACA: -0.235
AGTGTACG: 0.182
ACAATTGC: -0.0508
GAGTAAAC: -0.0565
